Measured values gathered from unrelated publications.
Protocols differ between the studies behind these lines. ± marks the error that the study gave.

For C#C[C@]1(CO)O[C@@H](n2cnc3c(N)nc(F)nc32)C[C@@H]1O, the AUC(0-inf) was 4.21 µM·h (human, fed, plasma; oral, 30 mg, geometric mean).
C=CC(=O)NC1CCN(c2ncc3ncnc(Nc4ccc(Oc5ccc6c(c5)ncn6C)c(C)c4)c3n2)CC1 has an AUC(0-inf) of 12.3 µM·h (human male, plasma; oral, 60 mg single dose, geometric mean).
Cc1cc(C)c(CNC(=O)c2cc(Cl)c3c(c2C)O[C@@](C)([C@H]2CC[C@H](N(C)C)CC2)O3)c(=O)[nH]1 has an AUC(0-inf) of 3.34 µg·h/mL (mean; healthy male humans, plasma; oral, 25 mg, day 11, with: itraconazole).
Cn1cncc1[C@@](N)(c1ccc(Cl)cc1)c1ccc2c(c1)c(-c1cccc(Cl)c1)cc(=O)n2C has an AUC(0-inf) of 6.85 µg·h/mL (human patients; oral, 300 mg/m2, first dose, cycle 1, expanded cohort, median).
Nc1ccn([C@@H]2O[C@H](CO)[C@@H](O)C2(F)F)c(=O)n1 has an AUC(0-inf) of 16.3 µg·h/mL (HPLC-UV; human, plasma; intravenous, 800 mg/m^2, median, before paricalcitol).
Cn1cncc1[C@@](N)(c1ccc(Cl)cc1)c1ccc2c(c1)c(-c1cccc(Cl)c1)cc(=O)n2C gave an AUC(0-inf) of 0.442 µg·h/mL (healthy human subjects, plasma; oral, 50 mg, fasted).
N#CCNC(=O)c1ccc(-c2ccnc(Nc3ccc(N4CCOCC4)cc3)n2)cc1 gave an AUC(0-inf) of 3.42 µg·h/mL (healthy human volunteers, plasma; oral, 200 mg single dose, day 1, fasted, given alone).
The AUC(0-inf) of Cn1c(=O)oc2ccc(-c3ccc(C[C@@H](C#N)NC(=O)[C@@H]4CNCCCO4)cc3)cc21 is reported as 4.3 µg·h/mL (human, moderate renal impairment, plasma; oral, 25 mg single dose, geometric least squares mean).
C[C@H]1CN(C(=O)CC#N)[C@]12CCN(c1ncnc3[nH]ccc13)C2 gave an AUC(0-inf) of 0.211 µg·h/mL (healthy human, plasma; oral, 6 mg single, geometric mean).
CNC(=O)c1c(C)oc2cc(Oc3ncnc4cc(OC)c(OC)cc34)ccc12 has an AUC(0-inf) of 5.29 µg·h/mL (human, mild hepatic impairment (NCI), plasma; oral, 2 mg, single dose).
Nc1ccn([C@@H]2O[C@H](CO)[C@@H](O)[C@@H]2O)c(=O)n1 has an AUC(0-inf) of 0.0705 µg·h/mL (human; subcutaneous, 20 mg, cycle 1 day 2, given alone).
For C=CC(=O)NC1CCN(c2ncc3ncnc(Nc4ccc(Oc5ccc6c(c5)ncn6C)c(C)c4)c3n2)CC1, the AUC(0-inf) was 47.6 µM·h (human, male; oral, 240 mg, fasted, spray-dried dispersion, geometric mean).
CC(C)C[C@H](NC(=O)[C@H](CC(C)C)NC(=O)[C@H](Cc1c[nH]c2ccccc12)NC(=O)[C@H](CCC(=O)O)NC(=O)[C@@H](NC(=O)[C@H](Cc1ccccc1)NC(=O)[C@H](CCC(=O)O)NC(=O)[C@H](CCCCNC(=O)COCCOCCNC(=O)COCCOCCNC(=O)CC[C@H](NC(=O)CCCCCCCCCCCCCCCCCCC(=O)O)C(=O)O)NC(=O)[C@H](C)NC(=O)[C@H](CCCCN)NC(=O)[C@H](CCCCN)NC(=O)[C@H](CCC(=O)O)NC(=O)[C@H](CC(=O)O)NC(=O)[C@H](CC(C)C)NC(=O)[C@H](Cc1ccc(O)cc1)NC(=O)[C@H](CCCCN)NC(=O)[C@H](CO)NC(=O)[C@H](Cc1ccc(O)cc1)NC(=O)[C@H](CC(=O)O)NC(=O)[C@H](CO)NC(=O)[C@@H](NC(=O)[C@H](Cc1ccccc1)NC(=O)[C@@H](NC(=O)CNC(=O)[C@H](CCC(N)=O)NC(=O)C(C)(C)NC(=O)[C@@H](N)Cc1c[nH]cn1)[C@@H](C)O)[C@@H](C)O)C(C)C)C(=O)N[C@@H](CCC(=O)O)C(=O)NCC(=O)NCC(=O)N1CCC[C@H]1C(=O)N[C@@H](CO)C(=O)N[C@@H](CO)C(=O)NCC(N)=O gave an AUC(0-inf) of 1570 µg·h/mL (human, plasma; subcutaneous, 16 mg once weekly, week 20, geometric mean).
The AUC(0-inf) of NC[C@@]1(CC(=O)O)[C@@H]2CC[C@H]3C[C@@H]2[C@@H]1C3 is reported as 6.66 µg·h/mL (human, severe renal impairment, plasma; oral, 20 mg single dose, geometric mean).
With CO[C@H]1C[C@@H]2CC[C@@H](C)[C@@](O)(O2)C(=O)C(=O)N2CCCC[C@H]2C(=O)O[C@H]([C@H](C)C[C@@H]2CC[C@@H](OCCO)[C@H](OC)C2)CC(=O)[C@H](C)/C=C(\C)[C@@H](O)[C@@H](OC)C(=O)[C@H](C)C[C@H](C)/C=C/C=C/C=C/1C the AUC(0-inf) was 0.338 ± 0.148 µg·h/mL (human patients, plasma; oral, 5 mg single dose, with: vorolanib 150 mg).
For Cl.[2H]C([2H])([2H])CC(=O)c1cnc(NC(=O)C2CC2)cc1Nc1cccc(-c2ncn(C([2H])([2H])[2H])n2)c1OC, the AUC(0-inf) was 2.63 µg·h/mL (geometric mean; human; oral, 40 mg twice daily, day 1, fed, liquid, multiple dose).
With N#C[C@H](C[C@@H]1CCCNC1=O)NC(=O)[C@H](CC1CC1)NC(=O)c1cc2cccc(Cl)c2[nH]1 the AUC(0-inf) was 17 µg·h/mL (human; 700 mg twice daily, day 1).
With CN[C@@H](C)C(=O)N[C@H]1CN(S(=O)(=O)c2cccc(S(=O)(=O)N3CC[C@H]4CC[C@@H](C(=O)NC(c5ccccc5)c5ccccc5)N4C(=O)[C@@H](NC(=O)[C@H](C)NC)C3)c2)CC[C@H]2CC[C@@H](C(=O)NC(c3ccccc3)c3ccccc3)N2C1=O the AUC(0-inf) was 0.855 ± 0.4 µg·h/mL (LC-MS/MS, noncompartmental; human, plasma; 30 mg, cycle 1 day 1).
For C#Cc1cccc(Nc2ncnc3cc(OCCOC)c(OCCOC)cc23)c1, the AUC(0-inf) was 37.2 ± 14.6 µM·h (human, plasma; oral, 100 mg, day 1).
CCCOc1ccc(NC(=O)CN2CCN(C)CC2)cc1-c1nc(CC)c(CC)c(=O)[nH]1 has an AUC(0-inf) of 0.585 ± 0.0836 µg·h/mL (human, fasting, plasma; oral, 10 mg, with: alcohol 0.5 g/kg).
The AUC(0-inf) of NC(CO)(CO)CCc1ccc(Sc2cccc(OCc3ccccc3)c2)cc1Cl is reported as 0.145 µg·h/mL (human male, whole blood; oral, 3 mg, with: cyclosporin 100 mg b.i.d.).
For CN(C)C(=O)c1cc2cnc(Nc3ccc(N4CCNCC4)cn3)nc2n1C1CCCC1, the AUC(0-inf) was 4.1 µg·h/mL (human, normal renal function, plasma; oral, 400 mg, single dose, geometric mean).
C=CC(=O)N(C)CCOc1c(N)ncnc1-c1cc(F)cc(NC(=O)c2ccc(C3CC3)cc2F)c1C gave an AUC(0-inf) of 0.0413 µg·h/mL (human, whole blood; oral, 15 mg, single ascending dose).
N[C@@H](CC(=O)N1CCn2c(nnc2C(F)(F)F)C1)Cc1cc(F)c(F)cc1F gave an AUC(0-inf) of 3.68 ± 0.355 µg·h/mL (female human, plasma; oral, 100 mg single dose).
N[C@]1(C(=O)O)[C@H]2[C@@H](C[C@@H]1F)[C@@H]2C(=O)O gave an AUC(0-inf) of 0.828 µg·h/mL (human, plasma; oral, 20 mg single dose, fasted).
CC(=O)O[C@H]1C(=O)[C@@]2(C)[C@H]([C@H](OC(=O)c3ccccc3)[C@]3(O)C[C@H](OC(=O)[C@H](O)[C@@H](NC(=O)c4ccccc4)c4ccccc4)C(C)=C1C3(C)C)[C@]1(OC(C)=O)CO[C@@H]1C[C@@H]2O has an AUC(0-inf) of 4.97 µg·h/mL (human, plasma; intravenous infusion, 80 mg/m^2, day 5, with oral co-drug daily).
For C[C@H](O)c1cc(C(=O)N[C@@H](C)Cn2ccc(-c3ccc(C#N)c(Cl)c3)n2)n[nH]1, the AUC(0-inf) was 10.5 µg·h/mL (human, fasted, plasma; oral tablet, 300 mg, geometric mean).
With O=C(O)c1ccccc1O the AUC(0-inf) was 238 µg·h/mL (humans, both sexes, plasma; oral, 650 mg aspirin, with alcohol, geometric mean).
With N[C@@H]1c2cccnc2[C@H](OC(=O)N2CCC(n3c(=O)[nH]c4ncccc43)CC2)CC[C@H]1c1cccc(F)c1F the AUC(0-inf) was 4.65 µg·h/mL (human, plasma; oral, 75 mg single dose, alone, geometric mean, itraconazole DDI study).
CCc1nc2c(C)cc(N3CCN(CC(=O)N4CC(O)C4)CC3)cn2c1N(C)c1nc(-c2ccc(F)cc2)c(C#N)s1 gave an AUC(0-inf) of 9 µg·h/mL (healthy human volunteers, plasma; oral, 150 mg).
C[C@H](Oc1ccc(Br)cc1-c1ccon1)C(=O)O has an AUC(0-inf) of 113 µg·h/mL (healthy male humans, plasma; oral, 400 mg once daily, day 1).
With CC1(COc2ccc3c(c2)ncn3-c2ccc3cccc(N4CCC(N)CC4)c3n2)COC1 the AUC(0-inf) was 9.7 µM·h (human patients, recurrent/progressive HGG or DIPG, serum; oral, 170 mg/m^2, day 1, median).
COc1ccc(F)cc1C(=O)NCc1ccc(-c2nn([C@@H](C)C(F)(F)F)c(N)c2C(N)=O)cc1 has an AUC(0-inf) of 80.6 µg·h/mL (human, plasma; oral, 200 mg single dose, given alone).
The AUC(0-inf) of CN(CC#N)C(=O)C[C@H](Nc1nc2ccccc2[nH]1)c1cccc(C(F)(F)F)c1 is reported as 6.83 ± 1.95 µg·h/mL (human; intravenous infusion, 1 mg/kg, 5 mg/mL formulation).
For O=C(O)CCC(=O)O.[2H]C([2H])([2H])Oc1cc(C)c2[nH]ccc2c1CN1CC[C@@H](C2CC2)C[C@H]1c1ccc(C(=O)O)cc1, the AUC(0-inf) was 227 µg·h/mL (LC-MS/MS, geometric mean; human, plasma; 600 mg, single dose, fasting).
CC(C)n1c(Nc2cccnc2)nc2cnc(Nc3ccc(N4CCN(C)CC4)cc3)nc21 has an AUC(0-inf) of 0.902 µg·h/mL (human, male, plasma; oral, 100 mg, day 1, single dose alone).
With CN(C)N=Nc1[nH]cnc1C(N)=O the AUC(0-inf) was 102 µg·h/mL (human patients, plasma; intravenous, 1000 mg/m^2 over 1 h, cycle 2 day 1, staggered with twice-weekly co-drug).
